Measured values gathered from unrelated publications.
Compare with care: the assays were run in different laboratories.
Organism: Escherichia coli

C=C(C)C(=O)NCCCCOCc1cn(CCCCNC(=O)C(=C)C)n[n+]1C — IC50 (growth, turbidity OD600; ΔtolC; 24 h): > 100 µM
CC[C@H](C)[C@@H]1NC(=O)CNC(=O)[C@H](CCCNC(=N)N)NC(=O)[C@H](Cc2ccc(O)cc2)NC(=O)[C@@H]2CSSC[C@H](NC1=O)C(=O)N[C@@H](Cc1ccc(O)cc1)C(=O)N[C@@H](CCCNC(=N)N)C(=O)N[C@@H](CCCNC(=N)N)C(=O)N[C@H](C(=O)N[C@@H](CCCNC(=N)N)C(N)=O)CSSC[C@H](NC(=O)[C@H](Cc1c[nH]c3ccccc13)NC(=O)[C@@H](N)CCCCN)C(=O)N[C@@H](Cc1ccccc1)C(=O)N[C@@H](CCCNC(=N)N)C(=O)N[C@@H](C(C)C)C(=O)N2 — IC50 (bacterial growth; DH5α; 50% growth inhibition): 2.03 µM
C=CC(=O)NCCCCCCOCc1cn(CCCCCCNC(=O)C=C)nn1 — IC50 (growth, turbidity OD600; ΔtolC; 24 h): > 100 µM
C#CCCCC(=O)N[C@H]1CCOC1=O — IC50 (LuxR reporter, antagonist; DH5α sensor strain; with: OHHL 200 nM): 1 to 4 µM
C[C@@H](O)[C@H](NC(=O)[C@H](Cc1c[nH]c2ccccc12)NC(=O)[C@H](CCCNC(=N)N)NC(=O)[C@H](Cc1c[nH]c2ccccc12)NC(=O)[C@H](CCCNC(=N)N)NC(=O)CNC(=O)[C@@H](NC(=O)[C@H](CCCNC(=N)N)NC(=O)[C@H](CCCNC(=N)N)NC(=O)[C@H](CC(N)=O)NC(=O)[C@H](Cc1c[nH]c2ccccc12)NC(=O)[C@H](CCCNC(=N)N)NC(=O)[C@H](Cc1c[nH]c2ccccc12)NC(=O)c1ccccc1)[C@@H](C)O)C(=O)NCC(=O)N1CCC[C@H]1C(N)=O — IC50 (growth; DH5α; 16 h, 37 °C): 39 µM
CCCCCCCCCCCCCC(=O)N[C@@H](Cc1c[nH]c2ccccc12)C(=O)N[C@@H](Cc1c[nH]c2ccccc12)C(=O)N[C@H](C(=O)N[C@@H](Cc1ccccc1)C(=O)N[C@@H](CCCNC(=N)N)C(=O)N[C@H](C(=O)N[C@H](C(=O)N[C@@H](Cc1ccc(O)cc1)C(=O)N1CCC[C@@H]1C(=O)N[C@@H](CCCNC(=N)N)C(=O)N[C@H](C(=O)N[C@H](C(=O)N[C@@H](Cc1ccc(O)cc1)C(=O)N[C@@H](CCCNC(=N)N)C(=O)N[C@@H](CCCNC(=N)N)C(=O)N[C@H](C(=O)N[C@@H](CCCNC(=N)N)C(=O)N[C@@H](Cc1c[nH]c2ccccc12)C(=O)N[C@H](C(=O)NCC(=O)N1CCC[C@H]1C(=O)N[C@@H](CCCCN)C(=O)N[C@@H](CCCCN)C(N)=O)[C@@H](C)O)C(C)C)C(C)C)[C@@H](C)CC)C(C)C)C(C)C)C(C)C — IC50 (bacterial growth; DH5α; 50% growth inhibition): > 100 µM
CC[C@H](C)[C@H](NC(=O)[C@H](Cc1c[nH]c2ccccc12)NC(=O)c1ccccc1)C(=O)N[C@H](C(=O)N[C@@H](Cc1ccc(O)cc1)C(=O)N[C@@H](CCCCN)C(=O)N[C@@H](Cc1c[nH]c2ccccc12)C(=O)N[C@H](CCCNC(=N)N)C(=O)N[C@@H](CCCNC(=N)N)C(=O)N[C@@H](CCCCN)C(=O)N[C@H](C(=O)N[C@H](C(=O)N[C@@H](CCCNC(=N)N)C(=O)N[C@@H](Cc1ccc(O)cc1)C(=O)N[C@@H](Cc1c[nH]c2ccccc12)C(=O)N[C@H](C(=O)NCC(=O)N[C@@H](CCCCN)C(=O)N[C@@H](CCCNC(=N)N)C(N)=O)[C@@H](C)O)C(C)C)C(C)C)C(C)C — IC50 (growth; DH5α; 16 h, 37 °C): 40 µM
C=CS(=O)(=O)NCCCCCCOCc1cn(CCCCCCNS(=O)(=O)C=C)n[n+]1C — IC50 (growth, turbidity OD600; ΔtolC; 24 h): > 100 µM
CC[C@H](C)[C@H](NC(=O)[C@H](Cc1c[nH]c2ccccc12)NC(=O)c1ccccc1)C(=O)N[C@H](C(=O)N[C@@H](Cc1ccc(O)cc1)C(=O)N[C@@H](CCCCN)C(=O)N[C@@H](Cc1c[nH]c2ccccc12)C(=O)N1CCC[C@@H]1C(=O)N[C@@H](CCCNC(=N)N)C(=O)N[C@@H](CCCCN)C(=O)N[C@H](C(=O)N[C@H](C(=O)N[C@@H](CCCNC(=N)N)C(=O)N[C@@H](Cc1ccc(O)cc1)C(=O)N[C@@H](Cc1c[nH]c2ccccc12)C(=O)N[C@H](C(=O)NCC(=O)N[C@@H](CCCCN)C(=O)N[C@@H](CCCNC(=N)N)C(N)=O)[C@@H](C)O)C(C)C)C(C)C)C(C)C — IC50 (growth; DH5α; 16 h, 37 °C): 44 µM
CC(C)C[C@@H]1NC(=O)[C@H](CCCNC(=N)N)NC(=O)[C@H](CCCNC(=N)N)NC(=O)[C@@H](NC(=O)[C@@H](N)CCC(=O)O)CSSC[C@@H](C(=O)N[C@@H](CCCNC(=N)N)C(=O)NCC(=O)N[C@@H](CCCNC(=N)N)C(N)=O)NC(=O)[C@H](Cc2ccc(O)cc2)NC(=O)[C@H]([C@@H](C)O)NC(=O)[C@H](C(C)C)NC(=O)[C@@H]2CSSC[C@H](NC1=O)C(=O)N[C@@H](Cc1ccc(O)cc1)C(=O)N[C@@H](CCCCN)C(=O)N[C@@H](CCC(N)=O)C(=O)N[C@@H](CCCNC(=N)N)C(=O)N2 — IC50 (bacterial growth; DH5α; 50% growth inhibition): 14.9 µM

Some of these lines once more:
C=CS(=O)(=O)NCCCCCCOCc1cn(CCCCCCNS(=O)(=O)C=C)n[n+]1C — IC50 (growth, turbidity OD600; ΔtolC; 24 h): > 100 µM
CC[C@H](C)[C@H](NC(=O)[C@H](Cc1c[nH]c2ccccc12)NC(=O)c1ccccc1)C(=O)N[C@H](C(=O)N[C@@H](Cc1ccc(O)cc1)C(=O)N[C@@H](CCCCN)C(=O)N[C@@H](Cc1c[nH]c2ccccc12)C(=O)N1CCC[C@@H]1C(=O)N[C@@H](CCCNC(=N)N)C(=O)N[C@@H](CCCCN)C(=O)N[C@H](C(=O)N[C@H](C(=O)N[C@@H](CCCNC(=N)N)C(=O)N[C@@H](Cc1ccc(O)cc1)C(=O)N[C@@H](Cc1c[nH]c2ccccc12)C(=O)N[C@H](C(=O)NCC(=O)N[C@@H](CCCCN)C(=O)N[C@@H](CCCNC(=N)N)C(N)=O)[C@@H](C)O)C(C)C)C(C)C)C(C)C — IC50 (growth; DH5α; 16 h, 37 °C): 44 µM
